{"data": "Assay results from different studies", "note": "Each numbered part is a random draw from the data of one study; scales do not carry over between parts.", "sequence of UniProt P07333 (whole entry, looked up)": "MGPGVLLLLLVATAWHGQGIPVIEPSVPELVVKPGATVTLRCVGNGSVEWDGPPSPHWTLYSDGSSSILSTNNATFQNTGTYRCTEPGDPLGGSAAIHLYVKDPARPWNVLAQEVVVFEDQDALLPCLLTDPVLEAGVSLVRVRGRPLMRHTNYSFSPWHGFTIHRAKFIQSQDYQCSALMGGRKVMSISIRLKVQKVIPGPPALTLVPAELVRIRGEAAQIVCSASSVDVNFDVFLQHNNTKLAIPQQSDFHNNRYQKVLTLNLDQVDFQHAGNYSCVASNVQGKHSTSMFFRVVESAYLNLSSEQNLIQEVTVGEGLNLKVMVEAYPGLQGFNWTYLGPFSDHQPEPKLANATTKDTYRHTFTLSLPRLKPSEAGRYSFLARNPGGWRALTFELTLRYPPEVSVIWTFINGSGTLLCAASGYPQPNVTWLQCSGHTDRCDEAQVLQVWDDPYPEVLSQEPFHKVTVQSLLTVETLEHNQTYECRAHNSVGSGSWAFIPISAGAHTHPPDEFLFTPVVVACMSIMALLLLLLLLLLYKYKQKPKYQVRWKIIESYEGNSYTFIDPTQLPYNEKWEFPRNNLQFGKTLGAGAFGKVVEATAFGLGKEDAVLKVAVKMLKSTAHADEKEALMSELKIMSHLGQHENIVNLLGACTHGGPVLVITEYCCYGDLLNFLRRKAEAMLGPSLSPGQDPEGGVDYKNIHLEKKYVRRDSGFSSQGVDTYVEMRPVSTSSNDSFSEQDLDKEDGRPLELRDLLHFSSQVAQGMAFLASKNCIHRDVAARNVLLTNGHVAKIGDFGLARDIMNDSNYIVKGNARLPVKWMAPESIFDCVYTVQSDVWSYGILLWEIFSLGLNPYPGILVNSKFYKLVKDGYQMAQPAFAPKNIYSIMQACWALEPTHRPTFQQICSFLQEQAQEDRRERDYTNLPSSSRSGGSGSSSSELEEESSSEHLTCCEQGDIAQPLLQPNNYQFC", "sequence of UniProt P54753 (whole entry, looked up)": "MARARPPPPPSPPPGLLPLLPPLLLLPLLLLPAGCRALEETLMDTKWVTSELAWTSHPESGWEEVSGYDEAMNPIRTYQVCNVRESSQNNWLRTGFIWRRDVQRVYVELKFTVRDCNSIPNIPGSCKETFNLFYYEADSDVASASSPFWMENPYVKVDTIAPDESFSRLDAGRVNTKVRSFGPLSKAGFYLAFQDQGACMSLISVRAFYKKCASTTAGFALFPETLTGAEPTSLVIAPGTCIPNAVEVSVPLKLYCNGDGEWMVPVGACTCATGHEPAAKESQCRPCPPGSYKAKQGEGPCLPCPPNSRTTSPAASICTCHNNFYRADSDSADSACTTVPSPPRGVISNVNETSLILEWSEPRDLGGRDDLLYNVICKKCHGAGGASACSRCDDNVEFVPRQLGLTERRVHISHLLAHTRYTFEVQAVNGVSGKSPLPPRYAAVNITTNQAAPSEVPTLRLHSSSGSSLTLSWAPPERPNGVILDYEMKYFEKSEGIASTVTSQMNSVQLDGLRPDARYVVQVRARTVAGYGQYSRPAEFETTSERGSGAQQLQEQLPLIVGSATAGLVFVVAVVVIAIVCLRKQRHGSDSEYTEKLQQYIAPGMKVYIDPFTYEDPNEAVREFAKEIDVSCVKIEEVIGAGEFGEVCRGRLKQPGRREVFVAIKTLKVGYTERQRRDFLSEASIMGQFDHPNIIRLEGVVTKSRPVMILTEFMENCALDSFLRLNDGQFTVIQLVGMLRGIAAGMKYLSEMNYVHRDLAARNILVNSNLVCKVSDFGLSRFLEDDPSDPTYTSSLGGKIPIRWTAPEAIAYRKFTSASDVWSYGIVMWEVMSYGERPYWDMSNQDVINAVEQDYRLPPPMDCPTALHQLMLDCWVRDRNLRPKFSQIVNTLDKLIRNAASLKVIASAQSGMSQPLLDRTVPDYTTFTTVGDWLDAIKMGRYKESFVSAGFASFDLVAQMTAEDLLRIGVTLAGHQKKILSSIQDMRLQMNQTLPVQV", "sequence of UniProt Q00535 (whole entry, looked up)": "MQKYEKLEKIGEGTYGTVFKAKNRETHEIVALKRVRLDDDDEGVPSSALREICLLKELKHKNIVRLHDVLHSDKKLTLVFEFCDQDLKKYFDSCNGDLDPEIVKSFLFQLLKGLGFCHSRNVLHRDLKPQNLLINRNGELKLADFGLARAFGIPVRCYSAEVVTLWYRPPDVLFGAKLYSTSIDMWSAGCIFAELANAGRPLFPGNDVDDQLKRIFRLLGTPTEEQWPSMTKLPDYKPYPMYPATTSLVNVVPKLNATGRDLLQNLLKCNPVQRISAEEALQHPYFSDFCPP", "sequence of UniProt Q8WXR4 (whole entry, looked up)": "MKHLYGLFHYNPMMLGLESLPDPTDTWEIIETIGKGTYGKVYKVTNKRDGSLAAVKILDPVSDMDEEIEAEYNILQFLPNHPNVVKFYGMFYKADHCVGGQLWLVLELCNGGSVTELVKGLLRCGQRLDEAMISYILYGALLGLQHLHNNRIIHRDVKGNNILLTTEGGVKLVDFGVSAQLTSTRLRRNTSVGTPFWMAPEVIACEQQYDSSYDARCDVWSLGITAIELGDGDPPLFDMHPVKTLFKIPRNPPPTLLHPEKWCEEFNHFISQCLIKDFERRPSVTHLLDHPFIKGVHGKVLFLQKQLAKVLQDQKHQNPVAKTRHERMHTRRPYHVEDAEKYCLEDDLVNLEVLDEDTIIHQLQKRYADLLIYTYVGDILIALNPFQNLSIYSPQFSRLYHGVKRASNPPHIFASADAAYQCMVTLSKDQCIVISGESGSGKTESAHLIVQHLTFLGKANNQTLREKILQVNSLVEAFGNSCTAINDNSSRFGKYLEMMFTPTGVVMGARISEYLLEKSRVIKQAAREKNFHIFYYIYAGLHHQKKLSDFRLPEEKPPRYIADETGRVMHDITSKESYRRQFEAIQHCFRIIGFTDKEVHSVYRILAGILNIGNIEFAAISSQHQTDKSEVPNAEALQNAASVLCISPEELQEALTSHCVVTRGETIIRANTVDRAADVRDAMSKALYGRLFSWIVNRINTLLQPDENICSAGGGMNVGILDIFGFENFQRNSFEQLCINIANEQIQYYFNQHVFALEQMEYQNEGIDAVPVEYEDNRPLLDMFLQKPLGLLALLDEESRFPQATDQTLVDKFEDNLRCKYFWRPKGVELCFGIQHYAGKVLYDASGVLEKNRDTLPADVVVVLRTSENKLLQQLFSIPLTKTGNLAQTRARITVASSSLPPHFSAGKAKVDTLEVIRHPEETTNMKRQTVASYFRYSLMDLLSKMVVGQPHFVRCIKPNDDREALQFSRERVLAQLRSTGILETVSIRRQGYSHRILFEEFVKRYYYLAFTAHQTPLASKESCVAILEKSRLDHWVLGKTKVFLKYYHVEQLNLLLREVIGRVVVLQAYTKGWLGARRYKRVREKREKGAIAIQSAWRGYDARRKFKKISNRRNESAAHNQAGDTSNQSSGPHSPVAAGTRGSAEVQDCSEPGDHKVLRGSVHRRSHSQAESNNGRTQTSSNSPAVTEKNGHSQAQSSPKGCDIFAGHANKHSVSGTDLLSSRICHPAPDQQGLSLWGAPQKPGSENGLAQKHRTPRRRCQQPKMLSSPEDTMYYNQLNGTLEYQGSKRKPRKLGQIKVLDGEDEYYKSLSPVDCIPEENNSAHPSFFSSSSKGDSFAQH", "sequence of UniProt P68400 (whole entry, looked up)": "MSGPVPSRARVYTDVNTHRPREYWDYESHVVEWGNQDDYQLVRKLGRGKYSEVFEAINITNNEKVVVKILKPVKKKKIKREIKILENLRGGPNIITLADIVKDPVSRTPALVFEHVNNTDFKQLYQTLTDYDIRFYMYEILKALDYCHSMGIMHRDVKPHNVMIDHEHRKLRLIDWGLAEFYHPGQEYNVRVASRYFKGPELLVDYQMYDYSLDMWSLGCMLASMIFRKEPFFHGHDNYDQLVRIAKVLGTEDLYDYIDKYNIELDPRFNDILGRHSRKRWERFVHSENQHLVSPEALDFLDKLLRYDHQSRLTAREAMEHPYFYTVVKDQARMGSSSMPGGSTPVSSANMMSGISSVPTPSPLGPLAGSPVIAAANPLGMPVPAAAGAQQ", "sequence of UniProt Q96Q40 (whole entry, looked up)": "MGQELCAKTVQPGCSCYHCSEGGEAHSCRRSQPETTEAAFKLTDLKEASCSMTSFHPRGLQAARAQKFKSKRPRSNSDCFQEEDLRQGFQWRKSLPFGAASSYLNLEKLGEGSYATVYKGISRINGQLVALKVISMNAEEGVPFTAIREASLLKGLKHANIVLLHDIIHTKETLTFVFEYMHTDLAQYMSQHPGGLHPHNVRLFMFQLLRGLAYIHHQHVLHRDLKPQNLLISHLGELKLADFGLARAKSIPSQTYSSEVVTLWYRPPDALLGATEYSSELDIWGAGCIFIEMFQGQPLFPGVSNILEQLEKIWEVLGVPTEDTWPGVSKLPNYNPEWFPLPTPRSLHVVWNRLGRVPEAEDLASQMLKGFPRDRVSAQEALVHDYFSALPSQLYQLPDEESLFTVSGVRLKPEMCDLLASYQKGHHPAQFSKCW"}
{"data": "Set 1", "cell line": "Huh-7", "concentration": "10 µM", "time": "24 h"}
{"SMILES": "C=C(CC)C(=O)c1ccc(OCC(=O)O)c(Cl)c1Cl", "viability [%]": 95.8}
{"SMILES": "C#C[C@]1(OC(C)=O)CC[C@H]2[C@@H]3CCC4=CC(=O)CC[C@@H]4[C@H]3CC[C@@]21C", "viability [%]": 83.2}
{"SMILES": "CC(C)[C@H]1CC[C@H](C(=O)N[C@H](Cc2ccccc2)C(=O)O)CC1", "viability [%]": 101}
{"SMILES": "NC(=O)c1ccc[n+]([C@@H]2O[C@H](COP(=O)([O-])OP(=O)(O)OC[C@H]3O[C@@H](n4cnc5c(N)ncnc54)[C@H](O)[C@@H]3O)[C@@H](O)[C@H]2O)c1", "viability [%]": 104}
{"SMILES": "Cc1cccc(C)c1OCC(C)N (stereo not drawn)", "viability [%]": 105}
{"SMILES": "O=C1NS(=O)(=O)c2ccccc21", "viability [%]": 94.8}
{"SMILES": "Cc1ccc(N(CC2=NCCN2)c2cccc(O)c2)cc1", "viability [%]": 102}
{"SMILES": "CN(C)c1nc(N(C)C)nc(N(C)C)n1", "viability [%]": 100}
{"SMILES": "Cn1c(=O)c2[nH]cnc2n(C)c1=O", "viability [%]": 95.2}
{"SMILES": "Nc1ccc(/N=N/c2ccccc2)c(N)n1", "viability [%]": 96.5}
{"SMILES": "C=C1c2cccc(O)c2C(=O)C2=C(O)[C@]3(O)C(=O)C(C(N)=O)=C(O)[C@@H](N(C)C)[C@@H]3[C@@H](O)[C@H]12", "viability [%]": 92.2}
{"data": "Set 2", "SMILES": "O=C(NCc1ncc(C(F)(F)F)cc1Cl)c1ccc2c(c1)C1(CCS(=O)(=O)CC1)[C@@H](C1CC1)N2S(=O)(=O)c1ccc(F)cc1", "effect on": "cell-free assay", "technique": "competition with immobilised ligand", "concentration": "1 µM"}
{"target": "Ephrin type-B receptor 3 (EPHB3, Homo sapiens, UniProt P54753)", "remaining binding [%]": 100}
{"target": "Macrophage colony-stimulating factor 1 receptor (CSF1R, Homo sapiens, UniProt P07333)", "remaining binding [%]": 87}
{"target": "Cyclin-dependent kinase 15 (CDK15, Homo sapiens, UniProt Q96Q40)", "remaining binding [%]": 69}
{"target": "Mitogen-activated protein kinase 12 (MAPK12, Homo sapiens, UniProt P53778)", "remaining binding [%]": 94}
{"target": "Serine/threonine-protein kinase Nek3 (NEK3, Homo sapiens, UniProt P51956)", "remaining binding [%]": 100}
{"target": "Receptor-interacting serine/threonine-protein kinase 4 (RIPK4, Homo sapiens, UniProt P57078)", "remaining binding [%]": 72}
{"target": "Myosin-IIIb (MYO3B, Homo sapiens, UniProt Q8WXR4)", "remaining binding [%]": 100}
{"target": "Interleukin-1 receptor-associated kinase 3 (IRAK3, Homo sapiens, UniProt Q9Y616)", "remaining binding [%]": 100}
{"target": "Protein kinase C theta type (PRKCQ, Homo sapiens, UniProt Q04759)", "remaining binding [%]": 95}
{"target": "Casein kinase II subunit alpha (CSNK2A1, Homo sapiens, UniProt P68400)", "remaining binding [%]": 67}
{"target": "Cyclin-dependent kinase 5 (CDK5, Homo sapiens, UniProt Q00535)", "remaining binding [%]": 89}
{"target": "Macrophage colony-stimulating factor 1 receptor, autoinhibited (CSF1R, Homo sapiens, UniProt P07333)", "remaining binding [%]": 74}
{"target": "Phosphatidylinositol 4-phosphate 5-kinase type-1 alpha (PIP5K1A, Homo sapiens, UniProt Q99755)", "remaining binding [%]": 100}
{"data": "Set 3", "SMILES": "CC(C)n1cnc(-c2ccc(F)cc2)c1-c1ncc(C(=O)Nc2ccc(N3CCN(C)CC3)cc2)[nH]1"}
{"technique": "phase 2a trial", "species": "idiopathic pulmonary fibrosis patients", "dose": "30 mg once daily", "notes": "grade 4 emergent event", "patients with proteinuria [%]": 0}
{"species": "human, idiopathic pulmonary fibrosis", "dose": "60 mg once daily", "notes": "trial, treatment-emergent", "patients with proteinuria [%]": 0}
{"technique": "phase 2a trial", "species": "idiopathic pulmonary fibrosis patients", "dose": "60 mg once daily", "notes": "grade 2 emergent event", "patients with proteinuria [%]": 0}
{"technique": "phase 2a trial", "species": "idiopathic pulmonary fibrosis patients", "dose": "30 mg once daily", "notes": "grade 2 emergent event", "patients with proteinuria [%]": 0}
{"technique": "phase 2a trial", "species": "idiopathic pulmonary fibrosis patients", "dose": "30 mg once daily", "notes": "grade 3 emergent event", "patients with proteinuria [%]": 0}
{"technique": "phase 2a trial", "species": "idiopathic pulmonary fibrosis patients", "dose": "60 mg once daily", "notes": "grade 5 emergent event", "patients with proteinuria [%]": 0}
{"technique": "phase 2a trial", "species": "idiopathic pulmonary fibrosis patients", "dose": "60 mg once daily", "notes": "grade 4 emergent event", "patients with proteinuria [%]": 0}
{"technique": "phase 2a trial", "species": "idiopathic pulmonary fibrosis patients", "dose": "60 mg once daily", "notes": "grade 1 emergent event", "patients with proteinuria [%]": 0}
{"technique": "phase 2a trial", "species": "idiopathic pulmonary fibrosis patients", "dose": "30 mg once daily", "notes": "grade 5 emergent event", "patients with proteinuria [%]": 0}
{"technique": "phase 2a trial", "species": "idiopathic pulmonary fibrosis patients", "dose": "60 mg once daily", "notes": "grade 3 emergent event", "patients with proteinuria [%]": 0}
{"data": "Set 4", "target": "Calcium/calmodulin-dependent protein kinase type II subunit alpha (CAMK2A, Homo sapiens, UniProt Q9UQM7)", "effect on": "enzyme activity", "mode": "inhibitor", "concentration": "10 µM", "sequence of UniProt Q9UQM7 (whole entry, looked up)": "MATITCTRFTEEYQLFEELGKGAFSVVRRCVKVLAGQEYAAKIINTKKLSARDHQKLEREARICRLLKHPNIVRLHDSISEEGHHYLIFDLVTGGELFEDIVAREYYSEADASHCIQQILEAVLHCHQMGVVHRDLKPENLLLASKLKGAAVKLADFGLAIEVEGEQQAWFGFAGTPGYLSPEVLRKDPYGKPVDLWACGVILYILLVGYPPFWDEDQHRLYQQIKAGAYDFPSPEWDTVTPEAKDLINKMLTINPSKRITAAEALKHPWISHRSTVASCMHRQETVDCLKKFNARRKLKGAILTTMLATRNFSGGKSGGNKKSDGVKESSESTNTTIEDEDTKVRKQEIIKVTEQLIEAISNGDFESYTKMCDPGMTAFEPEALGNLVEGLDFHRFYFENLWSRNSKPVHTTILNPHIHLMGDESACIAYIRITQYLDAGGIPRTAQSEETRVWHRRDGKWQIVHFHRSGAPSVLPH"}
{"SMILES": "C[C@H](CC[C@@H](O[C@@H]1O[C@H](CO[C@@H]2O[C@H](CO)[C@@H](O)[C@H](O)[C@H]2O)[C@@H](O)[C@H](O)[C@H]1O[C@@H]1O[C@H](CO)[C@@H](O)[C@H](O)[C@H]1O)C(C)(C)O)[C@H]1CC[C@@]2(C)[C@@H]3CC=C4[C@@H](CC[C@H](O[C@@H]5O[C@H](CO[C@@H]6O[C@H](CO)[C@@H](O)[C@H](O)[C@H]6O)[C@@H](O)[C@H](O)[C@H]5O)C4(C)C)[C@]3(C)C(=O)C[C@]12C", "inhibition": "5%"}
{"SMILES": "CCc1ccc(C=O)cc1", "inhibition": "-24%"}
{"SMILES": "CC(=O)OC[C@@]12CC[C@@H](C)[C@](C)(CCC3=CC(=O)OC3)[C@H]1C[C@H](O)C=C2CO", "inhibition": "-14%"}
{"SMILES": "CCCCCCCC/C=C\\CCCCCCCC(=O)OCC(O)CO (stereo not drawn)", "inhibition": "-4%"}
{"SMILES": "Nc1ncnc2c1ncn2[C@H]1C[C@H](O)[C@@H](CO)O1", "inhibition": "-1%"}
{"SMILES": "O=C1CC[C@@H](C(=O)N2CSC[C@H]2C(=O)O)N1", "inhibition": "1%"}
{"SMILES": "C/C=C(/C(=C/C)c1ccc(O)cc1)c1ccc(O)cc1", "inhibition": "2%"}
{"SMILES": "COc1ccc(-c2cc(=O)c3c(O)cc(O)c(-c4cc(-c5cc(=O)c6c(O)cc(O)cc6o5)ccc4OC)c3o2)cc1", "inhibition": "10%"}
{"note": "Repeated from above (set 2):"}
{"target": "Serine/threonine-protein kinase Nek3 (NEK3, Homo sapiens, UniProt P51956)", "remaining binding [%]": 100}
{"target": "Receptor-interacting serine/threonine-protein kinase 4 (RIPK4, Homo sapiens, UniProt P57078)", "remaining binding [%]": 72}
{"target": "Myosin-IIIb (MYO3B, Homo sapiens, UniProt Q8WXR4)", "remaining binding [%]": 100}
{"target": "Interleukin-1 receptor-associated kinase 3 (IRAK3, Homo sapiens, UniProt Q9Y616)", "remaining binding [%]": 100}
{"target": "Protein kinase C theta type (PRKCQ, Homo sapiens, UniProt Q04759)", "remaining binding [%]": 95}
{"target": "Casein kinase II subunit alpha (CSNK2A1, Homo sapiens, UniProt P68400)", "remaining binding [%]": 67}
